Assay results collected from several papers.
A part holds a random share of what one study measured. Several values in a cell are separate wells, animals, samples, runs or records.
Chain of UniProt P07333 (whole entry, looked up): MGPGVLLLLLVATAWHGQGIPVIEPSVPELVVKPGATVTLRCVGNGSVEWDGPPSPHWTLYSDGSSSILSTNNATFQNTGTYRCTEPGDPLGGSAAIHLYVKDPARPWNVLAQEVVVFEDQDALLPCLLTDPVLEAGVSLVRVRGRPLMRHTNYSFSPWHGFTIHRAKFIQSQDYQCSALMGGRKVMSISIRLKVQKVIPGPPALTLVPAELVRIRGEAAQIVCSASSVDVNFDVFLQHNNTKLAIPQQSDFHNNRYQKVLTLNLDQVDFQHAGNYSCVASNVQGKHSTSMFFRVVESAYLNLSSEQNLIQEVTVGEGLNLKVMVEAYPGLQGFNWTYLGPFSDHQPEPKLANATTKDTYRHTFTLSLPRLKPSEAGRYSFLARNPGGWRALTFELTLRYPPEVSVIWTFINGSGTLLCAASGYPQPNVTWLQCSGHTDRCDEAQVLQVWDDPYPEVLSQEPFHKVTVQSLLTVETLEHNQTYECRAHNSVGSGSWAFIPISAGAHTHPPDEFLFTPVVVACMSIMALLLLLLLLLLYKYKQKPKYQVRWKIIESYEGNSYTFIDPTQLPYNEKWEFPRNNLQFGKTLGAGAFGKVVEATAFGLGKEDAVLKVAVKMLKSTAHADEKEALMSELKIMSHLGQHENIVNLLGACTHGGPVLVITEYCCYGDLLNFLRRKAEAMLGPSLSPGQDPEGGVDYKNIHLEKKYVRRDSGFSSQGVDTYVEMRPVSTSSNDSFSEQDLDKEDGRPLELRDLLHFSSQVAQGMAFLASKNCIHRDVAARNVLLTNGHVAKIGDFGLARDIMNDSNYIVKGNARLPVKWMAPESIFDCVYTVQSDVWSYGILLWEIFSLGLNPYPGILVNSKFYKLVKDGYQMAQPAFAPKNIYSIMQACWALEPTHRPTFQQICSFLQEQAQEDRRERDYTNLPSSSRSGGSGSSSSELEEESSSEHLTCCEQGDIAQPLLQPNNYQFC
Chain of UniProt Q16584 (whole entry, looked up): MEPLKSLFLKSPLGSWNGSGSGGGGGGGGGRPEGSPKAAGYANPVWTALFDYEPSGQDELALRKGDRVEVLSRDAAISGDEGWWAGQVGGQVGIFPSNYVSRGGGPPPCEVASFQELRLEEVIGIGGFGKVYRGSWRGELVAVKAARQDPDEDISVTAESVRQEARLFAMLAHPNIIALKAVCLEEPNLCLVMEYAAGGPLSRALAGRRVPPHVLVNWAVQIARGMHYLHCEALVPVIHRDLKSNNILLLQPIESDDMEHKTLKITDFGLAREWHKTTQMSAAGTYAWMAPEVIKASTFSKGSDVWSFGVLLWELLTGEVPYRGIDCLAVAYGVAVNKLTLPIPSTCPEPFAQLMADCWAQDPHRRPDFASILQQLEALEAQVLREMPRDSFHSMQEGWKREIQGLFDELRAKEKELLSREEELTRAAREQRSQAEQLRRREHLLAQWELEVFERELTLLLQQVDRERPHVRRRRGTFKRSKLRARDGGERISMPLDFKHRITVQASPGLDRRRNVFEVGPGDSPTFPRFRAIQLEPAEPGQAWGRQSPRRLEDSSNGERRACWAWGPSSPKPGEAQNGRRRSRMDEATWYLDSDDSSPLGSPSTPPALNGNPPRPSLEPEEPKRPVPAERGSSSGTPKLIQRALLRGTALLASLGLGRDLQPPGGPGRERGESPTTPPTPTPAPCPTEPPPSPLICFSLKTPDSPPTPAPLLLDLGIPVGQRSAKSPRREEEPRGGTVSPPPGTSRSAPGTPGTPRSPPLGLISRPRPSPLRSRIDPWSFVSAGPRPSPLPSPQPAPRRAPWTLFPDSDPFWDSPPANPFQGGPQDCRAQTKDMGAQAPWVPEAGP
Chain of UniProt P53671 (whole entry, looked up): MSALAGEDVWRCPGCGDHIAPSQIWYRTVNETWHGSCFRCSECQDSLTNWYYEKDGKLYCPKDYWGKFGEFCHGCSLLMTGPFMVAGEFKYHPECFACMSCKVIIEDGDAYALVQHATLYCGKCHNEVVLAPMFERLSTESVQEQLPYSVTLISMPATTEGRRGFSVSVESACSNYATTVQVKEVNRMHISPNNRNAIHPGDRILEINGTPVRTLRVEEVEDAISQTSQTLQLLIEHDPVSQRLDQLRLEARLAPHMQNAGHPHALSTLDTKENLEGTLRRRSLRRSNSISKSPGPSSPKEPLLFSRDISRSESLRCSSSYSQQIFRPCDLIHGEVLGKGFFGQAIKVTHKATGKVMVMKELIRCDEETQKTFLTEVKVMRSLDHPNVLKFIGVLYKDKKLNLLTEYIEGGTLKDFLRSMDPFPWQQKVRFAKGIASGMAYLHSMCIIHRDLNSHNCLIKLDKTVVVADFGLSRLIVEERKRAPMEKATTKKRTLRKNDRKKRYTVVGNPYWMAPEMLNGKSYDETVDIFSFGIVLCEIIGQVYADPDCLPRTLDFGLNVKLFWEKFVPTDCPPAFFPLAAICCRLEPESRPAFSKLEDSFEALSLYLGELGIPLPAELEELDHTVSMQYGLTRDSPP
Chain of UniProt P78368 (whole entry, looked up): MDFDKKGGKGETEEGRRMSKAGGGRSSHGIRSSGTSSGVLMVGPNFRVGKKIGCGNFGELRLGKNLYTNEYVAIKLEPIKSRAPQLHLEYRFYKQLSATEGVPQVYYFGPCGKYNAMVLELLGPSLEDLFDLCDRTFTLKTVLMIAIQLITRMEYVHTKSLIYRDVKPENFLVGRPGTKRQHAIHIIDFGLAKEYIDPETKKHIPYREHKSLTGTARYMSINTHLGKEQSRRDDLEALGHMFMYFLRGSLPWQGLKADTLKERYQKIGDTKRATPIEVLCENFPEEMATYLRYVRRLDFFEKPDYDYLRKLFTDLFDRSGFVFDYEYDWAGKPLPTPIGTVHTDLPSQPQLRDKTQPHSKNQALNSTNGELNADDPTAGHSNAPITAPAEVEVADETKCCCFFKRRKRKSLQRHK
Chain of UniProt P35626 (whole entry, looked up): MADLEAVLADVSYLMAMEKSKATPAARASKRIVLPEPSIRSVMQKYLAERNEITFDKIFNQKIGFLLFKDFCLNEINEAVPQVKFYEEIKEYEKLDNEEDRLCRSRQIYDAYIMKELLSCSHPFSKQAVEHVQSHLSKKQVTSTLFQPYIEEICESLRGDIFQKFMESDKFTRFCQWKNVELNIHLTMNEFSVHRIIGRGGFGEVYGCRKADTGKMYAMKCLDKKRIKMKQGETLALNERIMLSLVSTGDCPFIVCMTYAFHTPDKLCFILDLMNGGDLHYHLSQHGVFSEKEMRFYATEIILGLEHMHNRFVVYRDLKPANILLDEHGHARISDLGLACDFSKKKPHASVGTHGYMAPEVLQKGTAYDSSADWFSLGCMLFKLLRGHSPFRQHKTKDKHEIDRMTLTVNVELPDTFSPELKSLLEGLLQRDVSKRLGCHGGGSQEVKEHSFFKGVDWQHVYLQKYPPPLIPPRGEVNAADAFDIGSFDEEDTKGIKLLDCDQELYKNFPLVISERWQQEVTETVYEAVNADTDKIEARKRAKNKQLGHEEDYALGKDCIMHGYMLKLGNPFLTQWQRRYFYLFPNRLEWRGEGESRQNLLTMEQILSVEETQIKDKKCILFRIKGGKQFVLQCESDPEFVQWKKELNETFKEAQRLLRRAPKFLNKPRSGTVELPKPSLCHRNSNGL

Set 1
Structure (SMILES): CC(C)ONC(=O)/C=C/CNCCCCN1c2ccccc2CCc2ccc(Cl)cc21.O=C(O)/C=C\C(=O)O
Target: E3 ubiquitin-protein ligase NEDD4, HECT domain (Homo sapiens, UniProt P46934)
Read-out: enzyme activity
Mode: inhibitor
Technique: Ub-TR-FRET
Medium: HECT domain
Reading: higher = more chain formation
Target sequence (P46934 938-1319, limits assumed): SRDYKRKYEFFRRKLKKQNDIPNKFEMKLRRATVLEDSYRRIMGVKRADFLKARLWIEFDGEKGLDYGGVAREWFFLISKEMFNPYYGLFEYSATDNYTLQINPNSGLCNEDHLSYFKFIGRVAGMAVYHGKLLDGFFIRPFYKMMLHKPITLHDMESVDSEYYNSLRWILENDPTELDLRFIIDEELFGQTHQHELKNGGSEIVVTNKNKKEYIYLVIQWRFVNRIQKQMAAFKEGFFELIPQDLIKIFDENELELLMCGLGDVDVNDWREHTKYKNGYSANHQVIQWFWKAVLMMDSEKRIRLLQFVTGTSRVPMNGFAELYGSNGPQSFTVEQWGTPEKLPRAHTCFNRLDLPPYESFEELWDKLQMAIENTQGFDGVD
0.01524 µM — “ubiquitin chain formation AUC”: 38200 a.u. and 32700 a.u. and 37700 a.u. and 38700 a.u. and 32100 a.u. and 32400 a.u.
0.1372 µM — “ubiquitin chain formation AUC”: 36400 a.u. and 30300 a.u. and 30200 a.u. and 31400 a.u. and 36200 a.u. and 36300 a.u.
11.11 µM — “ubiquitin chain formation AUC”: 5040 a.u. and 5120 a.u. and 5420 a.u. and 5340 a.u. and 5060 a.u. and 5280 a.u.
For 100 µM: “ubiquitin chain formation AUC” read 7140 a.u. and 7390 a.u. and 7480 a.u. and 7060 a.u. and 7260 a.u.
The “ubiquitin chain formation AUC” was 32600 a.u. and 31900 a.u. and 27400 a.u. and 28600 a.u. and 27300 a.u. (0.4115 µM).
The “ubiquitin chain formation AUC” was 7180 a.u. and 10100 a.u. and 7070 a.u. and 9030 a.u. and 6810 a.u. and 9490 a.u. (3.704 µM).
It gave 5560 a.u. and 5400 a.u. and 5240 a.u. and 5440 a.u. and 5210 a.u. and 5490 a.u. for “ubiquitin chain formation AUC” (33.33 µM).
The “ubiquitin chain formation AUC” was 19200 a.u. and 18800 a.u. and 18600 a.u. and 24700 a.u. and 23400 a.u. (1.235 µM).
It gave 37300 a.u. and 30300 a.u. and 31300 a.u. and 38600 a.u. and 29000 a.u. and 37000 a.u. for “ubiquitin chain formation AUC” (0.005081 µM).
The “ubiquitin chain formation AUC” was 36300 a.u. and 38500 a.u. and 31700 a.u. and 36900 a.u. and 30300 a.u. and 31500 a.u. (0.04572 µM).

Set 2
Compound: COc1cc(-c2nc3ccc(C(=O)NCCCN4CCN(c5cccc(C)c5C)CC4)cc3n2C2CCC2)cc(OC)c1OC
Read-out: binding
Technique: competition with immobilised ligand
Concentration: 1 µM
The remaining binding was 97% (Leucine-rich repeat serine/threonine-protein kinase 2 (LRRK2, Homo sapiens, UniProt Q5S007, G2019S)).
It gave 98% for remaining binding (Calcium/calmodulin-dependent protein kinase type II subunit delta (CAMK2D, Homo sapiens, UniProt Q13557)).
Serine/threonine-protein kinase mTOR (MTOR, Homo sapiens, UniProt P42345) — remaining binding: 100%.
It gave 82% for remaining binding (Macrophage colony-stimulating factor 1 receptor, autoinhibited (CSF1R, Homo sapiens, UniProt P07333)).
The remaining binding was 100% (G protein-coupled receptor kinase 3 (GRK3, Homo sapiens, UniProt P35626)).
Ribosomal protein S6 kinase alpha-4, C-terminal kinase domain (RPS6KA4, Homo sapiens, UniProt O75676) — remaining binding: 95%.
The remaining binding was 87% (Tyrosine-protein kinase ABL1, phosphorylated (ABL1, Homo sapiens, UniProt P00519, H396P)).
Phosphatidylinositol 4-phosphate 3-kinase C2 domain-containing subunit beta (PIK3C2B, Homo sapiens, UniProt O00750) — remaining binding: 73%.
It gave 72% for remaining binding (Casein kinase I isoform gamma-2 (CSNK1G2, Homo sapiens, UniProt P78368)).
Proto-oncogene tyrosine-protein kinase receptor Ret (RET, Homo sapiens, UniProt P07949, V804L) — remaining binding: 83%.
It gave 100% for remaining binding (Platelet-derived growth factor receptor beta (PDGFRB, Homo sapiens, UniProt P09619)).
The remaining binding was 74% (Tyrosine-protein kinase ABL1, non-phosphorylated (ABL1, Homo sapiens, UniProt P00519, H396P)).
It gave 95% for remaining binding (Serine/threonine-protein kinase PAK 6 (PAK6, Homo sapiens, UniProt Q9NQU5)).
Mast/stem cell growth factor receptor Kit, autoinhibited (KIT, Homo sapiens, UniProt P10721) — remaining binding: 87%.
For LIM domain kinase 2 (LIMK2, Homo sapiens, UniProt P53671): remaining binding read 100%.
Mitogen-activated protein kinase kinase kinase 11 (MAP3K11, Homo sapiens, UniProt Q16584) — remaining binding: 100%.
It gave 71% for remaining binding (Tyrosine-protein kinase ABL1, phosphorylated (ABL1, Homo sapiens, UniProt P00519, T315I)).

Set 3
Structure (SMILES): O=C(O)C1(O)Oc2cc(Br)ccc2N(Cc2ccccc2)C1=O (centres unmarked)
For Abutilon theophrasti; fresh weight; 150 g ai/ha, pre-emergence treatment: inhibition read 22.5% and 19.8% and 20.1%.
Eclipta prostrata; fresh weight; 150 g ai/ha, post-emergence treatment — inhibition: 66% and 65.1% and 62.7%.
Zea mays; fresh weight; soil surface spray, 150 g ai/ha, 21 days, pre-emergence crop safety — inhibition: 21.5% and 20.9% and 22.1%.
Arabidopsis thaliana; root length; Col-0, seedlings; 12.5 µg/mL — inhibition: 28.1%.
For Arabidopsis thaliana; root length; Col-0; 12.5 µg/mL, 7 days, seed germination, dark: inhibition read 28.1%.
For Arabidopsis thaliana; root length; Col-0; 6.25 µg/mL, 7 days, seed germination, dark: inhibition read 19.8%.
The inhibition was 89.7% (Arabidopsis thaliana; root length; Col-0; 100 µg/mL, 7 days, seed germination, dark).
It gave 5% and 5.1% for inhibition (Oryza sativa; fresh weight; soil surface spray, 150 g ai/ha, 21 days, pre-emergence crop safety).
Arabidopsis thaliana; hypocotyl length; Col-0; 50.0 µg/mL, 7 days, seed germination, dark — inhibition: 35.3%.
Arabidopsis thaliana; root length; Col-0; 50.0 µg/mL, 7 days, seed germination, dark — inhibition: 59.6%.
The inhibition was 77.2% and 75.4% and 77.5% (Alopecurus japonicus; fresh weight; 150 g ai/ha, pre-emergence treatment).
The inhibition was 38.8% and 45.4% and 42.3% (Echinochloa crus-galli; fresh weight; 150 g ai/ha, post-emergence treatment).
It gave 10.6% for inhibition (Arabidopsis thaliana; root length; Col-0, seedlings; 3.125 µg/mL; baseline: water control).

Set 4
SMILES: C[C@@H]1CN(c2ccc(-c3cc(C(=O)NCCOCCOCCOCCOCCOCCOCCNC(=O)/C=C/c4[nH]cc(C(=O)N[C@@H](CC(N)=O)c5ccc(F)c(Cl)c5)c4-c4ccc(Cl)cc4F)ccc3F)cc2NC(=O)c2ccc(F)cc2C(F)(F)F)C[C@H](C)N1C
Read-out: thermal unfolding
Technique: differential scanning fluorimetry
Concentration: 5.5 µM
Reading: higher = more unfolded
DCAF1: DDB1- and CUL4-associated factor 1 (DCAF1, Homo sapiens, UniProt Q9Y4B6)
Chain of UniProt Q9Y4B6 (whole entry, looked up): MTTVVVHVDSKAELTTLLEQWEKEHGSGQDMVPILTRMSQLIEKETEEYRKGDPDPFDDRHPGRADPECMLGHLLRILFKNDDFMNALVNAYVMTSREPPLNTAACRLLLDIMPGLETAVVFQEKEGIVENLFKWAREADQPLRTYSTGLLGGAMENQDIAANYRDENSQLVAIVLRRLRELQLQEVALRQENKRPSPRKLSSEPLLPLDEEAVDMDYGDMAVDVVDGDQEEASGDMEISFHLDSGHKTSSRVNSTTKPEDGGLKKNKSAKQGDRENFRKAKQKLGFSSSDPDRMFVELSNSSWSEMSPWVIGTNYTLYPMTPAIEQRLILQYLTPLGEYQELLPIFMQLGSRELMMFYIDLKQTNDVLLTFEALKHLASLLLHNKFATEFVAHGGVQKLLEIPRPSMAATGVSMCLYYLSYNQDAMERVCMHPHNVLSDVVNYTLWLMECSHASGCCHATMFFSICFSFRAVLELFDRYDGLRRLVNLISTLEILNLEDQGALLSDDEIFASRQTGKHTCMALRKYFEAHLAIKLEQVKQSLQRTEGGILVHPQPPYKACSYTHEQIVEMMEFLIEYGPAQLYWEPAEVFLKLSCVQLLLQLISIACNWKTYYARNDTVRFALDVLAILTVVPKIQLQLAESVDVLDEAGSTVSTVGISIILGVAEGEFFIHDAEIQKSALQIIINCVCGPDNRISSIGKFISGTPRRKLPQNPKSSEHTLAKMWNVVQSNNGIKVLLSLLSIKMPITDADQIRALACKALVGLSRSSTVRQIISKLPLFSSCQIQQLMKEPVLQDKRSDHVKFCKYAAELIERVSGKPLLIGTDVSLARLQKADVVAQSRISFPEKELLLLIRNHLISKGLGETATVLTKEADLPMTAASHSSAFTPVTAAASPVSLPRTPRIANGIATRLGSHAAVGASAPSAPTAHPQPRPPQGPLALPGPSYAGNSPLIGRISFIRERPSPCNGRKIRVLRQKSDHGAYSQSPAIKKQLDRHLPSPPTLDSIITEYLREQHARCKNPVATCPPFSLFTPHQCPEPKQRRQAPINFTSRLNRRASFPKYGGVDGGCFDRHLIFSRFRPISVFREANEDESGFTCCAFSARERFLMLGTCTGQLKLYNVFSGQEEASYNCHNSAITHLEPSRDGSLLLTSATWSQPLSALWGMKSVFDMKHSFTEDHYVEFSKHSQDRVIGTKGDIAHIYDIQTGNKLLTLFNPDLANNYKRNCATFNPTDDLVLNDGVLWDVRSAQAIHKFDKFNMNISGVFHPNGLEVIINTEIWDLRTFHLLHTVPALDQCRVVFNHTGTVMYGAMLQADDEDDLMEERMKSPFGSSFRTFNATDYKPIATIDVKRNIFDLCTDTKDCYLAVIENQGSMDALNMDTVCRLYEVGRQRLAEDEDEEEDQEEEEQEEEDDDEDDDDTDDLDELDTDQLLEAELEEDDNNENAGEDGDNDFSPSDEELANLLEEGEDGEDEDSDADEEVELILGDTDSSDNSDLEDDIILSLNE
WDR5: WD repeat-containing protein 5 (WDR5, Homo sapiens, UniProt P61964)
It gave 18400 a.u. for “SYPRO Orange fluorescence” (DCAF1; 50.4 °C).
It gave 16500 a.u. for “SYPRO Orange fluorescence” (WDR5; 55.61 °C).
It gave 27300 a.u. for “SYPRO Orange fluorescence” (WDR5; 70.01 °C).
WDR5; 91.01 °C — “SYPRO Orange fluorescence”: 53400 a.u.
The “SYPRO Orange fluorescence” was 13500 a.u. (WDR5; 27.8 °C).
For DCAF1; 89.61 °C: “SYPRO Orange fluorescence” read 32600 a.u.
The “SYPRO Orange fluorescence” was 28300 a.u. (DCAF1; 55.41 °C).

For quick reference, copied from above (set 4):
It gave 16500 a.u. for “SYPRO Orange fluorescence” (WDR5; 55.61 °C).
It gave 27300 a.u. for “SYPRO Orange fluorescence” (WDR5; 70.01 °C).
WDR5; 91.01 °C — “SYPRO Orange fluorescence”: 53400 a.u.
